# Experimental data pooled from the literature.
# Protocols differ between the studies behind these lines. ± gives the spread as reported.
# FPR1 N192K: fMet-Leu-Phe receptor (FPR1, Homo sapiens, UniProt P21462, N192K)
# uidA: Beta-glucuronidase (uidA, Escherichia coli, UniProt P05804)
# Sequence of UniProt P05804 (whole entry, looked up): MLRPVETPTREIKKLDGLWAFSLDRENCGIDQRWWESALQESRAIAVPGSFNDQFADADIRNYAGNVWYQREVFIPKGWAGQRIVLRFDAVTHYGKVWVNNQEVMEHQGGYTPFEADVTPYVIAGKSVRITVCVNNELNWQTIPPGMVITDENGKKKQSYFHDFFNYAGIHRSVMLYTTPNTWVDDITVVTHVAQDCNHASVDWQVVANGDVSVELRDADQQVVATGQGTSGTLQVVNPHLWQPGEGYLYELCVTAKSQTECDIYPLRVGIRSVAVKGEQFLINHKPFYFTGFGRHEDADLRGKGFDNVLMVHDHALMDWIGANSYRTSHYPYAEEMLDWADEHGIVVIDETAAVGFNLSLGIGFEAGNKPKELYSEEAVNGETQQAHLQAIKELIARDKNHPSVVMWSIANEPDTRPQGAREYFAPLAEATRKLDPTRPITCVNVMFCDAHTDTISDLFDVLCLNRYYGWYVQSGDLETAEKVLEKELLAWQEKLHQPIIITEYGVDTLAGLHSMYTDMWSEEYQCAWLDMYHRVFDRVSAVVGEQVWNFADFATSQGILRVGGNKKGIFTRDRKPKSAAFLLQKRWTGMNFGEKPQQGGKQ
# CHRM1: Muscarinic acetylcholine receptor M1 (CHRM1, Homo sapiens, UniProt P11229)
# Sequence of UniProt P11229 (whole entry, looked up): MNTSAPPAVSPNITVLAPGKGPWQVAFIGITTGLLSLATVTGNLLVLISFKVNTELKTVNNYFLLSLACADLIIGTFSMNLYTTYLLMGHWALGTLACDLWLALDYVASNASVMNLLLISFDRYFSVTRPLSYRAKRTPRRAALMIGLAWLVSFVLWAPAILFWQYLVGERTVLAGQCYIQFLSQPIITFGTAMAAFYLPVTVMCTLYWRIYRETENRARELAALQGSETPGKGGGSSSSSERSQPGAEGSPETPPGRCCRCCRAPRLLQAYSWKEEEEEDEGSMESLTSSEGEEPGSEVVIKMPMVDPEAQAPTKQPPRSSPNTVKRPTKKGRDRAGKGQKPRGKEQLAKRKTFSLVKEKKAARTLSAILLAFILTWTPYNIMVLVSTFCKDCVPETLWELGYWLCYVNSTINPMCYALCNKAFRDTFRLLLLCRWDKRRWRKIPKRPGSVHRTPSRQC
# GRPR: Gastrin-releasing peptide receptor (GRPR, Homo sapiens, UniProt P30550)
# Sequence of UniProt P30550 (whole entry, looked up): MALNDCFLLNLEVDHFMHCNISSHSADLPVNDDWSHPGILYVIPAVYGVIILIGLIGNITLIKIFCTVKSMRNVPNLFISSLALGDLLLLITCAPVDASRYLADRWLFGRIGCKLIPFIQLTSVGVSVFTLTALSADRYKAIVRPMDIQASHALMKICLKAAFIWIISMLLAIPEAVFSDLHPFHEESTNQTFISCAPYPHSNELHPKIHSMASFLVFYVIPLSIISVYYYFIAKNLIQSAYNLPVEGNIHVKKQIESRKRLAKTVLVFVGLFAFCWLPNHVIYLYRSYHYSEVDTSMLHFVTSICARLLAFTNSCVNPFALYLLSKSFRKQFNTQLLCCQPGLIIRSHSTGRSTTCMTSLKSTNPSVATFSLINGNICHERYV
# Mc1r: Melanocyte-stimulating hormone receptor (Mc1r, Mus musculus, UniProt Q01727)
# Sequence of UniProt Q01727 (whole entry, looked up): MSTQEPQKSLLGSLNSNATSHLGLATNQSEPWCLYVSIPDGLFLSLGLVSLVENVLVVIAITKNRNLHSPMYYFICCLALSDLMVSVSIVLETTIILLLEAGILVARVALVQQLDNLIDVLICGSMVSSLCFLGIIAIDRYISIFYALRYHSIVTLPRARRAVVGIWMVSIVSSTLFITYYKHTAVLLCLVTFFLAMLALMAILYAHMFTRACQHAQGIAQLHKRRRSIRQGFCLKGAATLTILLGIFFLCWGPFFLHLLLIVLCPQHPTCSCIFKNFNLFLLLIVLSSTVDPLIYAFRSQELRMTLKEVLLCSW
# Sequence of UniProt P20309 (whole entry, unmodified, looked up): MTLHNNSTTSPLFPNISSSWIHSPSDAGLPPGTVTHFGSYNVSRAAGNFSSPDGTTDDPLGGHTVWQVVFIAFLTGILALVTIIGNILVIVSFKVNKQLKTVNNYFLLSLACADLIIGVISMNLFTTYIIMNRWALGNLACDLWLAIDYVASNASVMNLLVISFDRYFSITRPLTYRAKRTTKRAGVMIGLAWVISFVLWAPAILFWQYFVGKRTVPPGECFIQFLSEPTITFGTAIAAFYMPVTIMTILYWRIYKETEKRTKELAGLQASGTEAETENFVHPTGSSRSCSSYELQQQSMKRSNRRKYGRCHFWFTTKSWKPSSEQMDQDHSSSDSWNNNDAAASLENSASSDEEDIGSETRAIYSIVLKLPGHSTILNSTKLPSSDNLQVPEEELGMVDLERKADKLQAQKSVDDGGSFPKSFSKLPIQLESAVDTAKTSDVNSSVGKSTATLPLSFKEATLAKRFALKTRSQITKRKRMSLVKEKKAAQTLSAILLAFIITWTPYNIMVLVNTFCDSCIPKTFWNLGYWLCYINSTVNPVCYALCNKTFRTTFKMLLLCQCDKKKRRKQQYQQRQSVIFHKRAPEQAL
# Sequence of UniProt O88536 (whole entry, looked up): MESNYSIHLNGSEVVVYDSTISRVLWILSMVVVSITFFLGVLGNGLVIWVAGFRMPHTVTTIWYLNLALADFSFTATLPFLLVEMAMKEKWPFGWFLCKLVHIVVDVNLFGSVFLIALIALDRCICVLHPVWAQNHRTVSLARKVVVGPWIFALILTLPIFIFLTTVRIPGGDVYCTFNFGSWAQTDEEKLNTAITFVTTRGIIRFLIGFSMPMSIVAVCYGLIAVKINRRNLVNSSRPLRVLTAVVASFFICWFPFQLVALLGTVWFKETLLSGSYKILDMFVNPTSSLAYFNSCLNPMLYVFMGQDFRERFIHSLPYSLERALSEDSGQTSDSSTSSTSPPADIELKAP
# Sequence of UniProt A7T1N0 (whole entry, unmodified, looked up): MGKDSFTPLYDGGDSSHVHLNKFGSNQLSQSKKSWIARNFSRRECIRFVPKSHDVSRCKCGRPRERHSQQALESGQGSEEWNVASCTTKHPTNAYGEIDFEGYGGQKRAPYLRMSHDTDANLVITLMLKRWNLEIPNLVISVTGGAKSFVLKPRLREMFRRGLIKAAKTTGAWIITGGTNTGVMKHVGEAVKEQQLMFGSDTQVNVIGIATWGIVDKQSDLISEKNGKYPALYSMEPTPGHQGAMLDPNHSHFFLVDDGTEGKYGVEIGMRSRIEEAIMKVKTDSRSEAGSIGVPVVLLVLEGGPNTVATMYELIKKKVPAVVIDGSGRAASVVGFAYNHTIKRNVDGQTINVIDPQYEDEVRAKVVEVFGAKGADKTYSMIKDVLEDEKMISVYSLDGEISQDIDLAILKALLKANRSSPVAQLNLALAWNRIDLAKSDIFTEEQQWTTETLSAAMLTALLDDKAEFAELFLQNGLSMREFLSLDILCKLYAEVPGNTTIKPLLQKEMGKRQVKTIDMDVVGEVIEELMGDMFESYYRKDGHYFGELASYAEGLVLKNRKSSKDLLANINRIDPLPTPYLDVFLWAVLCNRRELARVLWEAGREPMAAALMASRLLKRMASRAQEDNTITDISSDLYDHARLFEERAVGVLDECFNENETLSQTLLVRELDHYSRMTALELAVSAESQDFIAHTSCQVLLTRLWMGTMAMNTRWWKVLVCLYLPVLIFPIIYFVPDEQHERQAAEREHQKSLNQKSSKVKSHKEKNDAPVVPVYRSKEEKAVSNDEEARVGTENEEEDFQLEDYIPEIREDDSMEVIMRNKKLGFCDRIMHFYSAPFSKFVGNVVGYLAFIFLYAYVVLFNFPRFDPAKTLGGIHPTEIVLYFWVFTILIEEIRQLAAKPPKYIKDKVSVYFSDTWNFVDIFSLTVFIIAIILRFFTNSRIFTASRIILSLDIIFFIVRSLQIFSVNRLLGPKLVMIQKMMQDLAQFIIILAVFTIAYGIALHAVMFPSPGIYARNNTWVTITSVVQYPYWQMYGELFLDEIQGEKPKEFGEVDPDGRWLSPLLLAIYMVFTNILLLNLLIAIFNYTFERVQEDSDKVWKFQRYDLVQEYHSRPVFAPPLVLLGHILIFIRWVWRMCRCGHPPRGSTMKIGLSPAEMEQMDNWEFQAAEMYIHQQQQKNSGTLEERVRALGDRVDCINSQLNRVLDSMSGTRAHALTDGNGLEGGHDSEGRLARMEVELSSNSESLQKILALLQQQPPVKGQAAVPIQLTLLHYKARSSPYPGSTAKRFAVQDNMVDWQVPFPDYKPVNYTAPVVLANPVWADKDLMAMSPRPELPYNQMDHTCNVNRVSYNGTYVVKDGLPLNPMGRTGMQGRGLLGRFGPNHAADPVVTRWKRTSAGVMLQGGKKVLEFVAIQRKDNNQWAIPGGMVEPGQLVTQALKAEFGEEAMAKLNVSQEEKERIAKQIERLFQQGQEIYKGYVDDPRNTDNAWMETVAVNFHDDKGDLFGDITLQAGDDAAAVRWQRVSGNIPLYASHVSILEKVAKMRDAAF
# Sequence of UniProt Q9NYW4 (whole entry, looked up): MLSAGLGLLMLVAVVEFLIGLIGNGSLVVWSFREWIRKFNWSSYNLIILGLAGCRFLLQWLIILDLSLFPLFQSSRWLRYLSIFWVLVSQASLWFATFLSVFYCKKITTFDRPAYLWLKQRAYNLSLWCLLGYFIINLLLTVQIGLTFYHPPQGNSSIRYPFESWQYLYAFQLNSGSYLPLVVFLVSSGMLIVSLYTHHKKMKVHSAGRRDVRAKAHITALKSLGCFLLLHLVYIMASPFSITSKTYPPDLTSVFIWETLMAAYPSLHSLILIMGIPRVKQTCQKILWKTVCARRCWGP
# Sequence of UniProt P50391 (whole entry, looked up): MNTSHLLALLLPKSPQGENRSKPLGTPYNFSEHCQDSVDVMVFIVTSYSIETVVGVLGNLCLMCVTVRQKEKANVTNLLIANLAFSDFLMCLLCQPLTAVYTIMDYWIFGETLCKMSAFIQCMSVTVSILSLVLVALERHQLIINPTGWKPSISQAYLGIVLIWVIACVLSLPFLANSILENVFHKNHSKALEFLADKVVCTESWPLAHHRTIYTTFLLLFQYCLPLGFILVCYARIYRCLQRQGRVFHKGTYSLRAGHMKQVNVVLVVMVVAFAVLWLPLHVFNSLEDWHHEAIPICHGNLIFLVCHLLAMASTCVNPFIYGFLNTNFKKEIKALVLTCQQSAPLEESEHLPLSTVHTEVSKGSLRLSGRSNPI
Structure (SMILES),target,test,system,setting,scale,EC50 [nM]
CC(=O)N[C@@H](CCCNC(=N)N)C(=O)N[C@H](Cc1ccc(O)cc1)C(=O)N[C@@H](CCCNC(=N)NC(=O)NCCCCN)C(=O)N[C@@H](CC(C)C)C(=O)N[C@@H](CCCNC(=N)N)C(=O)N[C@@H](Cc1ccc(O)cc1)C(N)=O,"Neuropeptide Y receptor type 4 (NPY4R, Homo sapiens, UniProt P50391)","β-arrestin 2 recruitment, agonist",HEK293T,,,710 ± 200
CSCC[C@H](NC=O)C(=O)N[C@@H](Cc1ccccc1)C(=O)N[C@H](C(=O)N[C@@H](Cc1ccccc1)C(=O)N[C@@H](CCC(=O)O)C(=O)N1CCC[C@H]1C(=O)N[C@@H](Cc1ccccc1)C(=O)N1CCC[C@H]1C(=O)N[C@H](C(=O)N[C@@H](CC(N)=O)C(=O)O)[C@@H](C)O)[C@@H](C)O,FPR1 N192K,"receptor surface downregulation, agonist",CHO cells,"1 h, 37 °C",,3.1 ± 0.2
CNc1nc2sc3c(N4CCNCC4)nnnc3c2c2c1CCCC2,uidA,"enzyme activity, inhibitor, in-cell",K12 MG1655,24 h,,6
CC[C@H](C)[C@H](NC(=O)[C@@H](Cc1c[nH]c2ccccc12)NC(=O)[C@@H]1CCCN1C(=O)[C@H](CCCCN)NC(=O)[C@H](CCCCN)NC(=O)CCNC(=O)CCNC(=O)CN1CCN(CC(=O)O)CCN(CC(=O)O)CCN(CC(=O)O)CC1)C(=O)N[C@@H](C[Si](C)(C)C)C(=O)O,"Neurotensin receptor type 2 (NTSR2, Homo sapiens, UniProt O95665)","calcium mobilization, agonist",HT-29,,,431
CC[C@H](C)[C@H](NC(=O)[C@H](CCCCN)NC(=O)[C@H](CC(C)C)NC(=O)[C@H](Cc1ccccc1)NC(=O)[C@H](Cc1ccccc1)NC(=O)CNC(=O)[C@@H]1CCCN1C(=O)[C@H](CO)NC(=O)[C@H](CO)NC(=O)[C@H](CC(=O)O)NC(=O)[C@@H](N)CC(=O)O)C(=O)N[C@H](C(=O)N[C@@H](CCCCN)C(=O)N[C@@H](CC(N)=O)C(=O)N[C@H](C(=O)N1CCC[C@H]1C(=O)N[C@@H](CCCNC(=N)N)C(=O)N[C@@H](CC(C)C)C(N)=O)C(C)C)[C@@H](C)O,"Ecdysis triggering hormone receptor B (Aedes aegypti, UniProt A7J265)",,,,,~10
[2H]C([2H])(C)N1CCN(C2=Nc3cc(Cl)ccc3Nc3ccccc32)CC1,"Muscarinic acetylcholine receptor M3 (CHRM3, Homo sapiens, UniProt P20309)","calcium signal, agonist",,,,> 30000
CS(=O)(=O)c1ccc(Cn2cc(C(=O)N[C@H]3CCCC[C@@H]3O)c3c(F)cc(F)cc32)cc1,CHRM1,"calcium mobilization, positive allosteric modulator",CHO,together with: acetylcholine EC20,,3470
Nc1ncnc2c1ncn2C1OC(COP(=O)(O)OP(=O)(O)OCC2OC(O)C(O)C2O)C(O)C1O (stereo not drawn),"TRPM2 (Nematostella vectensis, UniProt A7T1N0, T143A)","channel activation, agonist, inside-out patch clamp",,"T143A, 2.5 µM PIP2, together with: 125 µM Ca2+",,6300 ± 300
C[N+](C)(CC#CCOC1=NOCC1)CCCCCCNC(=O)CCOCCOCCOCCOCCNC(=O)CCCC(=O)NCCCCC(C(=O)O)N(CC(=O)O)CC(=O)O (stereo not drawn),CHRM1,"calcium response, agonist",CHO,,,2300
CC(C)C[C@H](NC(=O)[C@H](CC(C)C)NC(=O)[C@H](Cc1c[nH]cn1)NC(=O)CNC(=O)[C@@H](NC(=O)[C@H](C)NC(=O)[C@H](Cc1c[nH]c2ccccc12)NC(=O)[C@H](CCC(N)=O)NC(=O)[C@H](CC(N)=O)NC(=O)CNC(=O)[C@H](CC(C)C)NC(=O)[C@H](CCCNC(=N)N)NC(=O)[C@H](CCC(N)=O)NC(=O)[C@@H]1CCC(=O)N1)C(C)C)C(N)=O,GRPR,"inositol phosphate, agonist",,,,1.95
C[C@@H]1NC(=O)[C@H](CC(N)=O)NC(=O)[C@H](Cc2c[nH]c3ccccc23)NC(=O)[C@H](CCCNC(=N)N)NC(=O)[C@@H](Cc2ccccc2)NC(=O)[C@H](Cc2c[nH]cn2)NC(=O)[C@@H](NC(=O)[C@@H](N)Cc2ccc(O)cc2)CCCn2cc(nn2)-c2cccc(c2)-c2cn(nn2)CCC[C@@H](C(=O)N[C@@H](Cc2ccc(O)cc2)C(N)=O)NC(=O)[C@H](Cc2ccccc2)NC1=O,Mc1r,agonist,,,,317 ± 9
CC(=O)N[C@@H](CCCNC(=N)N)C(=O)N[C@@H](CCCNC(=N)N)C(=O)N[C@H](Cc1ccc(I)cc1)C(=O)N[C@H](C(N)=O)[C@H](c1ccccc1)c1c[nH]c2ccccc12,Mc1r,"cAMP, agonist, AlphaScreen",,,,380
CC(C)C[C@H](NC(=O)[C@H](CC(C)C)NC(=O)[C@@H](NC(=O)[C@H](Cc1ccccc1)NC(=O)[C@@H](Cc1c[nH]c2ccccc12)NC(=O)[C@@H](N)CCCCN)[C@@H](c1ccccc1)c1c[nH]c2ccccc12)C(N)=O,"Growth hormone secretagogue receptor type 1 (GHSR, Homo sapiens, UniProt Q92847)","inositol phosphate, agonist, TR-FRET",,,,> 1000
CC(=O)N[C@@H](CCCNC(=N)N)C(=O)N[C@@H](CCCNC(=N)N)C(=O)N[C@@H](C(=O)N1Cc2ccccc2C[C@H]1C(N)=O)[C@H](c1ccccc1)c1c[nH]c2ccccc12,Mc1r,"cAMP, agonist, AlphaScreen",,,,210
c1cnc2c(c1)c1nccnc1c1cccnc12,"Taste receptor type 2 member 5 (TAS2R5, Homo sapiens, UniProt Q9NYW4)","calcium signal, agonist, fluorescence",,,,78400
CCCC[C@H](NC=O)C(=O)N[C@@H](CCCC)C(=O)N[C@@H](Cc1c[nH]c2ccccc12)C(=O)N[C@@H](CCC(=O)O)C(=O)N[C@@H](CC(=O)O)C(=O)N[C@@H](Cc1c[nH]c2ccccc12)C(=O)N[C@H](C(=O)NCC(=O)N[C@@H](Cc1c[nH]c2ccccc12)C(=O)N[C@H](C(=O)O)[C@@H](C)CC)C(C)C,FPR1 N192K,"receptor surface downregulation, agonist",CHO cells,"1 h, 37 °C",,40 ± 3
CNc1ccc2c(n1)sc1c(N3CCNCC3)nc(NC)nc12,uidA,,,,,8 ± 4
CSCC[C@H](NC(=O)[C@H](CC(C)C)NC(=O)[C@H](CO)NC(=O)CNC(=O)[C@@H](NC(=O)[C@H](C)NC(=O)[C@H](Cc1c[nH]c2ccccc12)NC(=O)[C@H](CC(C)C)NC(=O)[C@@H]1CCC(=O)N1)C(C)C)C(N)=O,GRPR,"inositol phosphate generation, agonist",BALB/3T3 transfected with human GRPR,"45 min, 37 °C",relative to: 1 µM GRP,67.6 ± 2.03
Clc1ccc2c(c1)N=C(N1CCNCC1)c1ccccc1N2,"Muscarinic acetylcholine receptor M3 (CHRM3, Homo sapiens, UniProt P20309, A239G/Y149C)","calcium signal, agonist",,,,2.1
CC[C@H](C)[C@H](NC(=O)[C@H](CC(N)=O)NC(=O)[C@@H](NC(=O)[C@H](Cc1ccccc1)NC(=O)[C@H](Cc1ccccc1)NC(=O)[C@H](CCSC)NC=O)[C@@H](C)CC)C(=O)N[C@@H](CC(C)C)C(=O)N[C@H](C(=O)N[C@@H](CC(C)C)C(=O)O)[C@@H](C)O,"Formyl peptide receptor 2 (Mus musculus, UniProt O88536)","calcium mobilisation, agonist, FLIPR Fluo-4",HEK-293T with Gα16,,,57
C[C@@H]1NC(=O)[C@H](CC(N)=O)N2C[C@H](Cc3c[nH]c4ccccc34)NC(=O)[C@@H](CSCC2=O)NC(=O)[C@H](CCCNC(=N)N)NC(=O)[C@@H](Cc2ccccc2)NC(=O)[C@H](Cc2c[nH]cn2)NC(=O)[C@@H](NC(=O)[C@@H](N)Cc2ccc(O)cc2)CSSC[C@@H](C(=O)N[C@@H](Cc2ccc(O)cc2)C(N)=O)NC(=O)[C@H](Cc2ccccc2)NC1=O,Mc1r,"reporter gene, agonist",,,,0.81
CC[C@H](C)[C@H](NC(=O)[C@H](CO)NC(=O)[C@H](Cc1ccc(O)cc1)NC(=O)[C@H](CC(=O)O)NC(=O)[C@H](CO)NC(=O)[C@@H](NC(=O)[C@H](Cc1ccccc1)NC(=O)[C@@H](NC(=O)CNC(=O)[C@H](CCC(=O)O)NC(=O)C(C)(C)NC(=O)[C@@H](N)Cc1ccc(O)cc1)[C@@H](C)O)[C@@H](C)CC)C(=O)N[C@@H](C)C(=O)N[C@@H](CCSC)C(=O)N[C@@H](CC(=O)O)C(=O)N[C@@H](CCCCN)C(=O)N[C@H](C(=O)N[C@@H](CCCNC(=N)N)C(=O)N[C@@H](CCC(N)=O)C(=O)N[C@@H](CCC(N)=O)C(=O)N[C@@H](CC(=O)O)C(=O)N[C@@H](Cc1ccccc1)C(=O)N[C@H](C(=O)N[C@@H](CC(N)=O)C(=O)N[C@@H](Cc1c[nH]c2ccccc12)C(=O)N[C@@H](CC(C)C)C(=O)N[C@@H](CC(C)C)C(=O)N[C@@H](C)C(=O)N[C@@H](CCC(N)=O)C(=O)N[C@@H](CCCNC(=N)N)C(=O)NCC(=O)N[C@@H](CCCCN)C(=O)N[C@@H](CCCCN)C(=O)N[C@@H](CO)C(=O)N[C@@H](CC(=O)O)C(=O)N[C@@H](Cc1c[nH]c2ccccc12)C(=O)N[C@@H](CCCCN)C(=O)N[C@@H](Cc1c[nH]cn1)C(=O)N[C@@H](CC(N)=O)C(=O)N[C@H](C(=O)N[C@H](C(=O)N[C@@H](CCC(N)=O)C(=O)O)[C@@H](C)O)[C@@H](C)CC)C(C)C)[C@@H](C)CC,"Gastric inhibitory polypeptide receptor (Mus musculus, UniProt Q0P543)","reporter gene, agonist, luciferase",,,,0.0039
CC(C)[C@H]1CC[C@H](N2CC[C@@](C)(c3cccc(O)c3)[C@@H](C)C2)CC1,"Mu-type opioid receptor (OPRM1, Homo sapiens, UniProt P35372)","GTPγS binding, agonist, radiometric",,,,> 10000
Cn1ccc(-c2ccc(Cn3cc(C(=O)N[C@H]4CCCC[C@@H]4O)c4c(F)cc(F)cc43)cn2)n1,CHRM1,"calcium mobilization, positive allosteric modulator",CHO,together with: acetylcholine EC20,,220
CSCC[C@H](NC(=O)[C@H](CC(C)C)NC(=O)[C@H](Cc1cnc[nH]1)NC(=O)CNC(=O)[C@@H](NC(=O)[C@H](C)NC(=O)[C@H](Cc1c[nH]c2ccccc12)NC(=O)[C@H](CCC(N)=O)NC(=O)[C@H](N)Cc1ccccc1)C(C)C)C(N)=O,GRPR,"inositol phosphate, agonist",,,,1.54
CC[C@H](C)[C@@H]1NC(=O)[C@H](Cc2ccccc2)NC(=O)[C@H](C)NC(=O)[C@@H](NC(=O)[C@@H](NC(=O)[C@H](CO)NC(=O)[C@@H](N)Cc2ccc(O)cc2)[C@@H](C)O)CSC(=O)[C@H](CCSC)NC1=O,"Receptor-histidine kinase AgrC (agrC, Staphylococcus aureus, UniProt O07911)",,,,,386
CCOC(=O)[C@](CC)(CCCSCCOCCOCCNc1ccc([N+](=O)[O-])c2nonc12)NC(=O)c1ccc(C2CC2)c(Cc2ccc(F)cc2)n1,"Cannabinoid receptor 2 (CNR2, Homo sapiens, UniProt P34972)","cAMP, agonist",,,,2.2
